Published values gathered from unrelated publications.
Each line is one published result; not all experiments were run side by side.
Chain of UniProt Q8TCC7 (whole entry, looked up): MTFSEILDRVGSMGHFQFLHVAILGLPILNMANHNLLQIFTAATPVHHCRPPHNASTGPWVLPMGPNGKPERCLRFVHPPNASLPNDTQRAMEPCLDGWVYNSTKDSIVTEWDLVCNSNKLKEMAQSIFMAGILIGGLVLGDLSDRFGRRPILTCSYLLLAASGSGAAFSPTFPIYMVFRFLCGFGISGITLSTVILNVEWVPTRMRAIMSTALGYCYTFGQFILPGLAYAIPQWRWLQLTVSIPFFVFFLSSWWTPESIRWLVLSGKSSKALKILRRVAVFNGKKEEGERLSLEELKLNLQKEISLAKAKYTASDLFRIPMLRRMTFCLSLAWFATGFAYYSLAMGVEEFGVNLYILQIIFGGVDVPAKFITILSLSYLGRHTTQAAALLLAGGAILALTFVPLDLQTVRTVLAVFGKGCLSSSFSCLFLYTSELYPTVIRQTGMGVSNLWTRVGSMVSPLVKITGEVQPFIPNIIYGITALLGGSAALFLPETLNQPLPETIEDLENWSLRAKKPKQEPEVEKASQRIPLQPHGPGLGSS
Chain of UniProt Q5S007 (whole entry, looked up): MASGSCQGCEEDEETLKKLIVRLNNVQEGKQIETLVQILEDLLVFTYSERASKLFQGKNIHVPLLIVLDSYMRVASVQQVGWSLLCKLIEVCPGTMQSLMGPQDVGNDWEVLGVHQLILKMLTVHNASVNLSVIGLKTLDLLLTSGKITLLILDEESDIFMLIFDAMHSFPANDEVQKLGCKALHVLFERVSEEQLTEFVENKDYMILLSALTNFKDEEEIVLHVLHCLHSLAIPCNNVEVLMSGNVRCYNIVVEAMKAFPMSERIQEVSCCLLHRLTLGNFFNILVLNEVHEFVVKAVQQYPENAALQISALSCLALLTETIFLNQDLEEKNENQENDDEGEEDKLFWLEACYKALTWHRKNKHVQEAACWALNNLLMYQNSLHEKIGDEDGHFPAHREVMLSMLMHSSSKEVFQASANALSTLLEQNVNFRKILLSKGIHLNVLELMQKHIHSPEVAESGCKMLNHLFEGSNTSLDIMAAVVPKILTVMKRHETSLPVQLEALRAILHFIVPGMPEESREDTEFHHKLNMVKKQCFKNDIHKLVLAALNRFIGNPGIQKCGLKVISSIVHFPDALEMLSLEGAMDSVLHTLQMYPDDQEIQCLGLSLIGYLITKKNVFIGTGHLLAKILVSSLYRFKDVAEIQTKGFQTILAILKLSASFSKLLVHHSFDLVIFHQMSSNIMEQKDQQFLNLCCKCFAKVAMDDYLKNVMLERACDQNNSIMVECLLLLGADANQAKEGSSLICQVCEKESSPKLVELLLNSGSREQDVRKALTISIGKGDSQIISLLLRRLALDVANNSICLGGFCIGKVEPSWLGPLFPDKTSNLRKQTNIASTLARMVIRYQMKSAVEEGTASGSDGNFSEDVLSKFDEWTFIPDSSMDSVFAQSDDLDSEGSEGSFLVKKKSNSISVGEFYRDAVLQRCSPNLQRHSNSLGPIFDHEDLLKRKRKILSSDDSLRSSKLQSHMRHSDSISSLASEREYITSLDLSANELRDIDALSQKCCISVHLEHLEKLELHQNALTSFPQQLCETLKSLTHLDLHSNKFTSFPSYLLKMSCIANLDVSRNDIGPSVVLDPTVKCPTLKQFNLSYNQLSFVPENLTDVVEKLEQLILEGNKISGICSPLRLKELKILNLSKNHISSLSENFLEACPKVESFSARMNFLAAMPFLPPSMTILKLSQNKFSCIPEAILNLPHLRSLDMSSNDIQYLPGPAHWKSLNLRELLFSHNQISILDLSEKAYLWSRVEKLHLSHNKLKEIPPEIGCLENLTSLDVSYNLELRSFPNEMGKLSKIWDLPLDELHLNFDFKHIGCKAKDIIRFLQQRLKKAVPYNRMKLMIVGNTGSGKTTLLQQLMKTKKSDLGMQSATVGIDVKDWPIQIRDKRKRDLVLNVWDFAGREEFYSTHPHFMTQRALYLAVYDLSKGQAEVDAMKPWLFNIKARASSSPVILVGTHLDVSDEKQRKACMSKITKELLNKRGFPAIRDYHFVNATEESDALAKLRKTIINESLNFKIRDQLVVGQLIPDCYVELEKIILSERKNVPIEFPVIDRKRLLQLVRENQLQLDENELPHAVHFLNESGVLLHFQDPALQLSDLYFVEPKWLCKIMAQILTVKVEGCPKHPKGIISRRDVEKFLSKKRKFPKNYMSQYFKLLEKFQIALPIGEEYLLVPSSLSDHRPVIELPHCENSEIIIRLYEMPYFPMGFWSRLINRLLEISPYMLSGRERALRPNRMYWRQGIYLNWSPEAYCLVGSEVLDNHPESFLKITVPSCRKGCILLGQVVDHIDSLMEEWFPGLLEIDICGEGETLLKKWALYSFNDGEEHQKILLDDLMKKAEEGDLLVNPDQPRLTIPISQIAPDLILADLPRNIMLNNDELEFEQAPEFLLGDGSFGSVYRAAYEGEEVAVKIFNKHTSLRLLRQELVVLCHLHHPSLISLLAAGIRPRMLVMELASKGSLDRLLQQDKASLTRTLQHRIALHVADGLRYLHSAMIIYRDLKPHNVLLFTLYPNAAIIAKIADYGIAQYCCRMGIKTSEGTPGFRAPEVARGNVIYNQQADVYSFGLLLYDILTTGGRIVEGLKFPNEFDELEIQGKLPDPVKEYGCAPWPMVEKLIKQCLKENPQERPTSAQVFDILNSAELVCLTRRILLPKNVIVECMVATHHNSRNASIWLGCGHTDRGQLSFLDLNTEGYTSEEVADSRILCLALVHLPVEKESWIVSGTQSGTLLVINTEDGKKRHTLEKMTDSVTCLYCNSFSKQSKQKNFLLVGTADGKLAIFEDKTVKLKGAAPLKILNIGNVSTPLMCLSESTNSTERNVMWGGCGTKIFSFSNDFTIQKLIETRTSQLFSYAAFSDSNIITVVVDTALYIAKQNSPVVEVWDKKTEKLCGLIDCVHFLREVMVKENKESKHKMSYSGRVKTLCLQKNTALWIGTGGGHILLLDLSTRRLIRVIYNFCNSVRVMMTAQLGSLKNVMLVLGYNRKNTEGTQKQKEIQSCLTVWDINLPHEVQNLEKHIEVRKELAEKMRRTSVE

| SMILES | target or system | test | system | setting | endpoint | result |
| --- | --- | --- | --- | --- | --- | --- |
| CCOC(=O)c1c(NC(=O)CNC(C)C)sc2c1CCCCC2 |  |  | male mouse, brain | intraperitoneal, 5 mg/kg, 30 min | concentration | 379 ng/g |
| Cc1c(C(=O)Nc2cc(Cl)cc(Cl)c2)cccc1[N+](=O)[O-] | Dihydroorotate dehydrogenase (quinone), mitochondrial (PFF0160c, Plasmodium falciparum, UniProt Q08210, E182D) | enzyme activity, inhibitor, absorbance |  |  | IC50 | > 10 µM |
| Cc1ccc(S(=O)(=O)Oc2ccc3c(c2)Oc2nc4c(c(N)c2C3c2ccc(Cl)c(Cl)c2)CCCC4)cc1 (centres unmarked) | SH-SY5Y | cell growth or viability, MTT |  | 6.3 µM | viability | 71.8% |
| CC(C)C[C@H](NC(=O)[C@H](Cc1ccccc1)NC(=O)[C@H](Cc1ccccc1)NC(=O)Cc1ccc(-c2ccccc2)cc1)C(=O)N[C@@H](CCCCN)C(=O)N[C@@H](CCCNC(=N)N)C(=O)N[C@H](C(=O)N[C@@H](Cc1c[nH]c2ccccc12)C(=O)N[C@@H](CCCCN)C(=O)N[C@@H](CCCNC(=N)N)C(=O)O)C(C)C |  | metabolic stability, mass spectrometry | human, liver microsomes | 15 min | compound remaining | 47.1% |
| CC[C@H](C)CCCCC(=O)N[C@@H](CCN)C(=O)N[C@H](C(=O)N[C@@H](CCN)C(=O)N[C@H]1CCNC(=O)[C@H]([C@@H](C)O)NC(=O)[C@H](CCN)NC(=O)[C@H](CCN)NC(=O)[C@H](CC(C)C)NC(=O)[C@@H](CC(C)C)NC(=O)[C@H](CCN)NC1=O)[C@@H](C)O |  |  | male Sprague-Dawley rat, plasma | intravenous, 5 mg/kg | AUC(0-inf) | 12.5 µg·h/mL |
| CC[C@H](C)[C@H](NC(=O)CN)C(=O)NCC(=O)N[C@@H](C)C(=O)N[C@H](C(=O)N[C@@H](CC(C)C)C(=O)N[C@@H](CCCCN)C(=O)N[C@H](C(=O)N[C@@H](CC(C)C)C(=O)N[C@H](C(=O)N[C@H](C(=O)NCC(=O)N[C@@H](CC(C)C)C(=O)N1CCC[C@H]1C(=O)N[C@@H](C)C(=O)N[C@@H](CC(C)C)C(=O)N[C@H](C(=O)N[C@@H](CO)C(=O)N[C@@H](Cc1c[nH]c2ccccc12)C(=O)N[C@H](C(=O)N[C@@H](CCCCN)C(=O)N[C@@H](CCCNC(=N)N)C(=O)N[C@@H](CCCCN)C(=O)N[C@@H](CCCNC(=N)N)C(=O)N[C@@H](CCC(N)=O)C(=O)N[C@@H](CCC(N)=O)C(N)=O)[C@@H](C)CC)[C@@H](C)CC)[C@@H](C)O)[C@@H](C)O)C(C)C)C(C)C |  | chemical stability, HPLC | human, serum | 300 µM, 4 h | compound remaining | ~60% |
| CCCn1c(O)nnc1SCC(=O)Nc1cc(Cl)ccc1Cl | Dihydroorotate dehydrogenase (quinone), mitochondrial (PFF0160c, Plasmodium falciparum, UniProt Q08210) | enzyme activity, inhibitor, absorbance |  |  | IC50 | 1.53 µM |
| Nc1c2c(nc3c1C(c1cccc([N+](=O)[O-])c1)c1ccc(OCC(=O)c4ccc(Cl)cc4)cc1O3)CCCC2 (centres unmarked) | SH-SY5Y | cell growth or viability, MTT |  | 1.6 µM | viability | 80.2% |
| C[N+]1=C2C=C(N)C(=O)c3[nH]cc(c32)CC1 | HeLa | cell growth or viability, MTT |  | 72 h | CC50 | 1 µM |
| O=C([O-])CN1CCN(CC(=O)[O-])CCN(CC(=O)NCC2CCC(C(=O)N[C@@H](Cc3ccc4ccccc4c3)C(=O)NCCCC[C@H](NC(=O)N[C@@H](CCC(=O)O)C(=O)O)C(=O)O)CC2)CCN(CC(=O)[O-])CC1.[177Lu+3] (some centres unmarked) | 22Rv1 tumour model |  | host not given, blood | 96 h, tumour-bearing | tracer uptake | 0.04 %ID/g |
| O=C(O)C(F)(F)C(F)(F)C(F)(F)C(F)(F)C(F)(F)C(F)(F)C(F)(F)F | Organic anion transporter 3 (SLC22A8, Homo sapiens, UniProt Q8TCC7) | transporter uptake, substrate | HEK293 | 2.5 min, pH 7.4 | Km | 88.4 µM |
| Nc1c2c(nc3c1C(c1ccc(Cl)c(Cl)c1)c1ccc(OCC(=O)c4ccccc4)cc1O3)CCCC2 (centres unmarked) | SH-SY5Y | cell growth or viability, MTT |  | 100 µM | viability | 36.5% |
| C[C@]12CC[C@H]3[C@@H](CC=C4CC(O)CC[C@@]43CO)[C@@H]1CCC2O (some centres unmarked) |  |  | rat, plasma | intraperitoneal, 10 mg/kg | Cmax | 2.81 µg/mL |
| [2H]c1c([2H])c([C@]2([2H])CCCN2C(=O)C(C)(C)Oc2ccc3cn[nH]c3c2)c([2H])c([2H])c1C([2H])([2H])[2H] | Leucine-rich repeat serine/threonine-protein kinase 2 (LRRK2, Homo sapiens, UniProt Q5S007) | binding, competition with immobilised ligand |  | 1 µM | remaining binding | 99% |

A few entries again:
| SMILES | target or system | test | system | setting | endpoint | result |
| --- | --- | --- | --- | --- | --- | --- |
| CCOC(=O)c1c(NC(=O)CNC(C)C)sc2c1CCCCC2 |  |  | male mouse, brain | intraperitoneal, 5 mg/kg, 30 min | concentration | 379 ng/g |
